Measurements collected from several papers.
A part holds a random share of what one study measured. Substitutions count along the parent as printed.
Chain of UniProt P62344 (whole entry, looked up): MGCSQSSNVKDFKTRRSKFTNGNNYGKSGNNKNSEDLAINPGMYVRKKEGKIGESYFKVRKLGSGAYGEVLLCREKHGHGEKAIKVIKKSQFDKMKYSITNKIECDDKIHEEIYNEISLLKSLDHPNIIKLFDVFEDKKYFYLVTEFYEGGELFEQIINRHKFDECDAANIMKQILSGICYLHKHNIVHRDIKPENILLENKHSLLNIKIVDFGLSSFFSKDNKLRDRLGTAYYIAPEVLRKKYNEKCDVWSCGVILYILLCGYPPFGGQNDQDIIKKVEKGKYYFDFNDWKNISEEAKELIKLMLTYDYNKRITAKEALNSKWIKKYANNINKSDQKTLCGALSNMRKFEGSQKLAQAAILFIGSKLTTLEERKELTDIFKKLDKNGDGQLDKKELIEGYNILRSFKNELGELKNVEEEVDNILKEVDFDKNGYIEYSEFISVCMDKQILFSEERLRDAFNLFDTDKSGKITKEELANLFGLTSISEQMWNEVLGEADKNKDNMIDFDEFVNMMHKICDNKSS

Sample 1 — method: universal PBM; form: double-stranded DNA, one strand shown; sample: in vitro; concentration: 600 nM; reading: higher = stronger binding; quantity: E-score
Target: Sal-like protein 4, full length isoform A (SALL4, Homo sapiens, UniProt Q9UJQ4, residues 1-1053)
Chain of UniProt Q9UJQ4 (whole entry, looked up): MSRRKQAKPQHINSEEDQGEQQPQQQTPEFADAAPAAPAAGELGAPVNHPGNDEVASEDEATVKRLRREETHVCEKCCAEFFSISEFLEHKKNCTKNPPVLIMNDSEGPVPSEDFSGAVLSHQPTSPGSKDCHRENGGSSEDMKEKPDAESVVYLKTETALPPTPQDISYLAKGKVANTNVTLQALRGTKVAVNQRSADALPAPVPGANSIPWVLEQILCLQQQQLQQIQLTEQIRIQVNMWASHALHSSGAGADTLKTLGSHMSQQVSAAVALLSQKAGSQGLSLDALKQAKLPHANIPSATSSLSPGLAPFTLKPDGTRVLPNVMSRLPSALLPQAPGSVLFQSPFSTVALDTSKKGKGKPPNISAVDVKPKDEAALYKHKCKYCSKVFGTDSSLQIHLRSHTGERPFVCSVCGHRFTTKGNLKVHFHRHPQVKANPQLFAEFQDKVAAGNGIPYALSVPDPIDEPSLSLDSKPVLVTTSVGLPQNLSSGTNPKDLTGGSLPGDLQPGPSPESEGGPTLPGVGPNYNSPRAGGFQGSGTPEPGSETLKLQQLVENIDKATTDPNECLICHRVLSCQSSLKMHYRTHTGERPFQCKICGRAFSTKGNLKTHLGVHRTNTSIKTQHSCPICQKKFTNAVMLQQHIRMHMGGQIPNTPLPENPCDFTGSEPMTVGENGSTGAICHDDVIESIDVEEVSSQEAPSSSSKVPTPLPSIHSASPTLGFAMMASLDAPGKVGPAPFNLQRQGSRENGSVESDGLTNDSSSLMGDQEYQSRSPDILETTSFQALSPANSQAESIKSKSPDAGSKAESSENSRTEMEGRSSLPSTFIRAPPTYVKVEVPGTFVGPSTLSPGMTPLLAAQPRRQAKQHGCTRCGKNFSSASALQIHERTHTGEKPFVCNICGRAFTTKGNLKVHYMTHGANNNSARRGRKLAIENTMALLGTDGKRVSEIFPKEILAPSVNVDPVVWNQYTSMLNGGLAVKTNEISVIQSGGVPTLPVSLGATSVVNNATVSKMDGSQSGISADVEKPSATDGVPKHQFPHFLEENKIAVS
Setting: 8-mer, flanks averaged, mean of replicates
Sequence = TAGTTACA; value = 0.11
Sequence = GGAGACAC; value = -0.153
Sequence = AGCTGCTC; value = -0.1
Sequence = CCGTGTTA; value = -0.0906
Sequence = ATCGCTCG; value = -0.072
Sequence = AAAAAACC; value = 0.113
Sequence = AGGCCGAC; value = -0.423
Sequence = CGTAGCTA; value = -0.0687

Sample 2 — method: protein binding microarray; form: double-stranded DNA, one strand shown; sample: in vitro; concentration: not given; reference: not given; reading: higher = stronger binding; quantity: E-score
Target: Histone acetyltransferase KAT6A, winged helix 1, GST fusion (KAT6A, Homo sapiens, UniProt Q92794, residues 1-85)
Setting: 8-mer, flanks averaged, mean of 2 arrays, mostly near background
Construct (chain): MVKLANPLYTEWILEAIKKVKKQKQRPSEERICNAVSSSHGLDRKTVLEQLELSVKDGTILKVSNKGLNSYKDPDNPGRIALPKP
Sequence = TCGTGGAA; value = -0.0902
Sequence = GCACCACA; value = -0.0763
Sequence = ATCCATAG; value = -0.0117
Sequence = GATGGAGC; value = 0.0329
Sequence = CCTCCCCC; value = 0.0575
Sequence = ACCTAGGA; value = -0.105
Sequence = AAAGCGAC; value = 0.108
Sequence = ACACCCCG; value = 0.222

Sample 3 — target: CCNF, cyclin fold, Cln2 fusion (human); method: yeast growth competition, sequencing; sample: yeast; setting: strong parent motif; reference: not given; reading: higher = stronger binding; quantity: normalised enrichment score; starting sequence: viral docking peptide; TSVRRALFTGGSD
Variant = TSVRAAAFTGGSD [R5A L7A]; value = 0.114
Variant = TSVRRALFEGGSD [T9E]; value = 7.75
Variant = TSVRRALFTPGSD [G10P]; value = 7.93
Variant = TPVRRALFTGGSD [S2P]; value = 7.71
Variant = TSVRWALFTGGSD [R5W]; value = 0.734
Variant = TAVRRALFTGGSD [S2A]; value = 7.9
Variant = TSVRRACFTGGSD [L7C]; value = 0.507
Variant = TSVRRALFTGGID [S12I]; value = 8.3
Variant = TDVRRALFTGGSD [S2D]; value = 7.31
Variant = TSVRRALFTGMSD [G11M]; value = 8.53
Variant = TSVRRALFTGGKD [S12K]; value = 7.91
Variant = TKVRRALFTGGSD [S2K]; value = 8.58
Variant = TSVRRALFMGGSD [T9M]; value = 8.82
Variant = TSVRRALFTGQSD [G11Q]; value = 8.26
Variant = TSYRRALFTGGSD [V3Y]; value = 5.66
Variant = TSVRRADFTGGSD [L7D]; value = -0.226
Variant = TSVRRDLFTGGSD [A6D]; value = 3.5
Variant = TSVRRALFLGGSD [T9L]; value = 8.77
Variant = TSVRRRLFTGGSD [A6R]; value = 8.69
Variant = TSVRRALFTGNSD [G11N]; value = 8.2
Variant = TSVRRALPTGGSD [F8P]; value = 0.411
Variant = TTVRRALFTGGSD [S2T]; value = 8.29
Variant = TSVRRALFTYGSD [G10Y]; value = 8.48
Variant = TSVRRALFGGGSD [T9G]; value = 8.84
Variant = TSVRRSLFTGGSD [A6S]; value = 7.77

Sample 4 — method: RNAcompete; form: RNA; sample: in vitro; concentration: 20 nM; setting: 7-mer, probes averaged, single round; reference: mean of 7-mers; reading: higher = stronger binding; quantity: 7-mer Z-score
Target: PABPC1L2, full length, GST fusion (mouse, UniProt A0ABA7IW68)
Construct (chain): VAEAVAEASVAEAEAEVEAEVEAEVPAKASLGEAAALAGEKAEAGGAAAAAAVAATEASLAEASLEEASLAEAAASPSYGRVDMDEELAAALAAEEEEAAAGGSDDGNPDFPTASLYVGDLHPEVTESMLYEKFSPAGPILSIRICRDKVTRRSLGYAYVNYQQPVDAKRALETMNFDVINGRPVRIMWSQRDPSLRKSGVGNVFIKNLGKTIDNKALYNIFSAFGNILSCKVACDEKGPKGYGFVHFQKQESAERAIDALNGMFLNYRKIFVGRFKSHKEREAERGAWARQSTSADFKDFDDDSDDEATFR
Sequence = UUCUGAG; value = -0.231
Sequence = GCCUACG; value = -0.271
Sequence = CUAAGAG; value = -0.113
Sequence = CUCUGAU; value = -0.246
Sequence = UGCAAAU; value = -0.0754
Sequence = GGGGGCA; value = 0.717
Sequence = UUCACGU; value = -0.351
Sequence = AACUGAU; value = 0.211

Single results of other studies
Compound = C[C@H](c1cccc(C#N)c1)n1cc(Cl)cc(C(N)=O)c1=N; target = Calcium-dependent protein kinase 1 (CDPK1, Plasmodium falciparum, UniProt P62344); test = cell-free assay, competition with immobilised ligand; conditions = 1 µM; quantity = remaining binding; value = 86%
